Measurements gathered from unrelated publications.
Numbered parts are unrelated; each lists some results of a single study.
Chain of UniProt P14921 (whole entry, unmodified, looked up): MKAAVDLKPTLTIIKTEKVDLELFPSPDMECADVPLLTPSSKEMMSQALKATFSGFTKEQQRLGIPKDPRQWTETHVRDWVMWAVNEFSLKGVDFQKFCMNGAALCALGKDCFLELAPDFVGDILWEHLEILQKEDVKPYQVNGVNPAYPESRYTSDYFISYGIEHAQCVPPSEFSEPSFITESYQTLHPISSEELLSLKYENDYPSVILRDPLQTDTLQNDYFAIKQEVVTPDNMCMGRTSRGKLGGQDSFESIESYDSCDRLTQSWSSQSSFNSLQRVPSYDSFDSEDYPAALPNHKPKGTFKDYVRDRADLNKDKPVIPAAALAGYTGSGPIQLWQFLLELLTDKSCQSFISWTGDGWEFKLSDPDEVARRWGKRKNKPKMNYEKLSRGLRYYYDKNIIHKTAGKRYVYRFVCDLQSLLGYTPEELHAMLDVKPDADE
Chain of UniProt P18846 (whole entry, looked up): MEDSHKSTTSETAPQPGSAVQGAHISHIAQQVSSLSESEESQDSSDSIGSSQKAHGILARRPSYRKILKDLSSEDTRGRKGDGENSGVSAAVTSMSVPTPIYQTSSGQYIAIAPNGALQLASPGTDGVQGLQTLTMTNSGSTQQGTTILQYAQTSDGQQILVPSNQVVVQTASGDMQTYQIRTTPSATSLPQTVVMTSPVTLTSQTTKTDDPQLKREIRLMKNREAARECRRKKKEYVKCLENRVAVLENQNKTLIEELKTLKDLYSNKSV
Chain of UniProt P48431 (19-118, looked up): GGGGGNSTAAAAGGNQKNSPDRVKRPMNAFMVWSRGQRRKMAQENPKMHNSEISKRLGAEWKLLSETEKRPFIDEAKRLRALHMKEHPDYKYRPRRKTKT
Chain of UniProt P28147 (whole entry, looked up): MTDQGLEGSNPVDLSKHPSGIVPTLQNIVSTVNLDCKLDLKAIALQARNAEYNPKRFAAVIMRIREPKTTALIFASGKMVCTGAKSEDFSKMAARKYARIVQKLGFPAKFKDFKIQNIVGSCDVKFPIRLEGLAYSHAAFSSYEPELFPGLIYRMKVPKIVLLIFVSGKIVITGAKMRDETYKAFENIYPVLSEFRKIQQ

Study 1
Cell line: HEK-293T
Organism: VSV pseudotyped with SARS-CoV-2 spike
Tested at: 10 µM
Time: 16 h
Measurement: pseudovirus infection
CC(C(=O)O)c1cccc(C(=O)c2ccccc2)c1 (stereo not shown): 84.9%
CC(C)NCC(O)COc1cccc2ccccc12 (stereo not shown): 83%
Cc1cc2c(s1)Nc1ccccc1N=C2N1CCN(C)CC1: 41.8%

Study 2
Target: RING finger protein unkempt homolog, zinc fingers 1-6, GST-SBP tag (UNK, Homo sapiens, UniProt Q9C0B0, residues 30-357)
Chain of UniProt Q9C0B0 (30-357, looked up): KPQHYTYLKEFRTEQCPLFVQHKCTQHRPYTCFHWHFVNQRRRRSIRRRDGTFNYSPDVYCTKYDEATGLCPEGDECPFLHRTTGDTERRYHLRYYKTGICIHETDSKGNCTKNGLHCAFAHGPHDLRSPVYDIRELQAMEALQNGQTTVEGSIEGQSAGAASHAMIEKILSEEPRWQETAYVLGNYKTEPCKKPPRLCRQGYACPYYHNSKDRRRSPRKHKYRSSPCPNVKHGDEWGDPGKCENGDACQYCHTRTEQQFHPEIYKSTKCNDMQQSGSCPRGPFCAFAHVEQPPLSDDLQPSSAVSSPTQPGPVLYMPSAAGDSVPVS
Technique: RNA Bind-n-Seq
Molecule type: RNA
Matrix: in vitro
Tested at: not given
Notes: RNA with constant flanks, human-mouse chimeric sites, ends assumed
Baseline: input RNA pool
Reading: higher = stronger binding
Measurement: bound/input enrichment
Constant ends, left off below: GGGAGUUCUACAGUCCGACGAUC … CAACAGAGGAUUGAGCAUCA
UCUUAACUUAUUCAUUUAACUUAUUUUUAUAGCUAGAUAAAUAUUGUUAGUCUUAGUCAAUAGCUCACAUUUUUUGAGAAGCAUGCCCUCCCUGUCCAUUUGUCUUACAAUAACACUCAG: 22.4 ratio
UACUACUGAAUCUGUGAUAUUGGCAAUUAUUAUUAUGGCCAGGGUCAUCCCAUGAAGCCUCAUAGAAUCCGGAUGACUCAUAACUUGCUGCUAAAUUAUGGUUUAUACAGAAAAAUGGAA: 0.242 ratio
CUCAGAGAUGUGGCAUAUCAGUAUGUGAAAAAGGGGGCUCGUAUAUUUGUGGAAGGGAAAAUAGACUAUGGCGAGUACAUGGAUAAAAAUAAUGUGAGGCGGCAAGCAACAACAAUCAUA: 0.64 ratio
CUCAUGGCUGCAGAAACAGGAAGUGGAAAAACUGGUGCAUUUAGUAUUCCCGUUAUCCAGAUAGUUUAUGAAACUCUGAAAGACCAACAGGAAGGAAAAAAAGGAAAAACAACUAUUAAA: 1.13 ratio
CCCUCCCCGGGCCACCCACCCCUCCCGCUCCCAGCGGGAGAUCCAGGUUUCUUCUUAUUUCAUAGCAAAUAAGAAAAAUGUUCUACGCACAUUUUGUCCUCAGUAAACGAGGGCCUCUGG: 0.349 ratio
AAAGAACUACUGAGGCAAGGCAGCAAAUUUAGAAGAAACAUUUCAACAAUAUUGAUAGAGUUAGGAUUCCAAAUUAAAAAGAAAACUAAGACAUUAUACAUCAACAAAGCCAAUAUCUGG: 22.6 ratio
UAACCACAUCAAGAUGGUUGGGAAGCUGAAGCAGAACUUACUCUUGGCAUGUCUGGUGAUUAGUUCUGUGACCGUGUUUUACCUGGGCCAGCAUGCCAUGGAAUGCCAUCACCGAAUAGA: 0.149 ratio
CAGUCCCCGUGUCCCAGUGCAGGACGAUGUGAACAAAUCGAAGACAUGGACCCUCUAUUGUAGUUCUUGAUUCUCGAGUGCCAUUAUUAUUGUUUGUCUUUUUUUUUUUUUUUUUAAAGA: 1.52 ratio

Study 3
Target: Replicase polyprotein 1ab, polymerase (rep, Severe acute respiratory syndrome coronavirus 2, UniProt P0DTD1)
Observed: enzyme activity
Action: inhibitor
Tested at: 20 µM
Measurement: inhibition
C=CCNC(N)=S: 1.34%
CCC(=O)N[C@@H]1Cc2ccccc2[C@H](c2ccccc2)C1: 1.69%
COc1cc(COc2cc(N)c(Cl)cc2C(=O)CCC2CCN(CCNS(C)(=O)=O)CC2)cc(OC)c1: 3.09%
C[C@@](Cc1ccc(O)c(O)c1)(NN)C(=O)O: -2.27%
OC[C@H]1O[C@H](O[C@]2(CCl)O[C@H](CCl)[C@@H](O)[C@@H]2O)[C@H](O)[C@@H](O)[C@H]1Cl: -3.5%
O=C(NCC1CCCCN1)c1cc(OCC(F)(F)F)ccc1OCC(F)(F)F (stereo not shown): -2.76%
C[C@H](Cc1ccc(OCC(=O)O)cc1)NC[C@H](O)c1cccc(Cl)c1: 1.2%
N#Cc1ccc(COC[C@H]2O[C@@H](n3c(NCc4ccc(Cl)c(Cl)c4)nc4c(N)ncnc43)[C@H](O)[C@@H]2O)cc1: 0.24%
OCCC#Cc1nc(-c2ccc(F)cc2)c(-c2ccncc2)n1CCCc1ccccc1: -0.32%
O=S(=O)(c1ccccc1F)N1CCOc2c(N3CCNCC3)cccc21: 7.6%
CN[C@@H](C)[C@H]1[C@H](O)C[C@@]2(C)[C@@H]3CC[C@H]4C(C)(C)[C@@H](NC)CC[C@@]45C[C@@]35CC[C@]12C: -0.94%
CCN1CCN(Cc2ccc(C(=O)Nc3ccc(C)c(Oc4ccc5c(c4)CC(=O)N5)c3)cc2C(F)(F)F)CC1: -18.8%
Cc1cc(O)ccc1Cl: 0.64%
O=C(CCNNC(=O)c1ccncc1)NCc1ccccc1: -4.01%
Cc1ccnc(NC(=O)C(C)c2cccc(C(=O)c3ccccc3)c2)c1 (stereo not shown): -3.16%
NC(Cc1ccc(O)cc1)C(=O)O (racemic): -0.73%
O=C1NC(=O)c2cc(Nc3ccc(F)cc3)c(Nc3ccc(F)cc3)cc21: -1.86%
CCOC(=O)[C@H](CCc1ccccc1)N[C@@H](C)C(=O)N1CCC[C@H]1C(=O)O: 26.8%
O=C1NC(=O)c2c1c1c3ccccc3n3c1c1c2c2ccccc2n1[C@H]1CC[C@@H]3O1: 0.87%
Clc1cccc(C(c2ccc3[nH]cnc3c2)n2ccnc2)c1 (stereo not shown): 8.85%
O=C(CCCCCCCC(=O)NCCO)NCCO: 0.89%
O=P(O)(NCCCl)NCCCl: 6.81%
Cc1cc(O)c(C(C)C)cc1Cl: 0.85%
CC1(C)CCC(C)(C)c2cc(C3(c4ccc5cc(C(=O)O)ccc5c4)SCCS3)ccc21: 2.25%
O=C(O)Cc1cccc(OCCCN(Cc2cccc(C(F)(F)F)c2Cl)CC(c2ccccc2)c2ccccc2)c1: 6.21%

Study 4
Target: Sal-like protein 4, full length isoform B (SALL4, Homo sapiens, UniProt Q9UJQ4-2, residues 1-616)
Technique: universal PBM
Molecule type: double-stranded DNA, one strand shown
Matrix: in vitro
Tested at: not given
Notes: 8-mer, flanks averaged, mean of replicates
Reading: higher = stronger binding
Measurement: E-score
Target sequence (chain): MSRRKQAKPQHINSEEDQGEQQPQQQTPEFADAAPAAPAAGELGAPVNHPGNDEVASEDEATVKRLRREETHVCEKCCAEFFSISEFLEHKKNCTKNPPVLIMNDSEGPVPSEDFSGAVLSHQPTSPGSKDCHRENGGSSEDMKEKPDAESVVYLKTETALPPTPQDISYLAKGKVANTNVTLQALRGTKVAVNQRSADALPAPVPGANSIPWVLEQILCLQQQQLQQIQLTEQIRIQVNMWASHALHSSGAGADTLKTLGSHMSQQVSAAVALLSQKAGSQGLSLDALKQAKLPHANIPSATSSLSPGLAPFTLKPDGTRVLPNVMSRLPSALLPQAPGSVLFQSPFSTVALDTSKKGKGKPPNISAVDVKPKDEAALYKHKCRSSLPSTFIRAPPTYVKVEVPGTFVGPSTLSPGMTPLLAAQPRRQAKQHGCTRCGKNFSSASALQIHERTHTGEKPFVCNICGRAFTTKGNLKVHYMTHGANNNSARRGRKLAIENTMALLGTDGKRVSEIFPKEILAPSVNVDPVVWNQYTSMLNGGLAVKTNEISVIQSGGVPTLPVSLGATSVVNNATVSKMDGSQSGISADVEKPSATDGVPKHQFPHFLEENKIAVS
CCACAACA: -0.038
ATTCGCAG: 0.0763
AATACCGC: -0.138
AATCTAGA: 0.135
ATTTCGAG: 0.124
CCGGTGCG: -0.362
ATTTGCTG: 0.216
TTCTAGAA: -0.0976

Study 5
Target: Replicase polyprotein 1ab, main protease (rep, Severe acute respiratory syndrome coronavirus 2, UniProt P0DTD1)
Observed: enzyme activity
Action: inhibitor
Tested at: 20 µM
Notes: hit confirmation
Measurement: inhibition
CCCCCCCCN=c1ccn(CCCCCCCCCCn2ccc(=NCCCCCCCC)cc2)cc1: 25.7%
Cc1cc2nc3ccc(N(C)C)cc3[s+]c2cc1N: 34.4%
CC1=C(CC(=O)O)c2cc(F)ccc2/C1=C\c1ccc([S+](C)[O-])cc1 (stereo not shown): 57.3%
COc1cccc(C(=O)CCN[C@@H](C)[C@H](O)c2ccccc2)c1: 90.5%

Further values, each from its own experiment
Technique: protein-binding microarray
Molecule type: double-stranded DNA, one strand shown
Matrix: in vitro
Tested at: not given
Notes: k-mer, scored over probes, only values ≥0.25
Reading: higher = stronger binding
GCAATACA
E-score (Protein C-ets-1 (ETS1, Homo sapiens, UniProt P14921, residues 1-441, Y397A, full length assumed)): 0.275

CCACGTC
E-score (Cyclic AMP-dependent transcription factor ATF-1 (ATF1, Homo sapiens, UniProt P18846, residues 1-271, full length assumed)): 0.371

AATAAGG
E-score (TATA-box-binding protein 1 (TBP1, Arabidopsis thaliana, UniProt P28147, residues 1-200, full length assumed)): 0.27

ATTGTTA
E-score (Transcription factor SOX-2, HMG box (SOX2, Homo sapiens, UniProt P48431, residues 19-118)): 0.459
